Published values gathered from unrelated publications.
A part holds a random share of what one study measured. Positions count from the first letter of the parent shown.

Series 1
Target: POU domain, class 6, transcription factor 1, POU and homeodomain (POU6F1, Homo sapiens, UniProt Q14863, residues 311-611)
Method: protein-binding microarray
Form: hairpin DNA
Matrix: in vitro
Tested at: not given
Notes: whole hairpin DNA, median over replicate spots
Baseline: not given
Direction: higher = stronger binding
All sequences stand within: GAGGCC … GGCCTCACACTCTT
Target sequence (chain): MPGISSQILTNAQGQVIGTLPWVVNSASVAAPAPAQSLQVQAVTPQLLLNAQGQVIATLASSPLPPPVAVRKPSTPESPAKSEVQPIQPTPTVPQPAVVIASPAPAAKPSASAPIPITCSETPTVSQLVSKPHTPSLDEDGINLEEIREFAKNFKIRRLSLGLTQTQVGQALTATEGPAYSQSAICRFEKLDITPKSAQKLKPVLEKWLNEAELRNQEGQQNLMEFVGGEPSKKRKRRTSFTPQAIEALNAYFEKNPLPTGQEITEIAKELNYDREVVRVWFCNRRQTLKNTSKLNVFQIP
Strand	median fluorescence [a.u.]
ATCGTGAGGTGCCTCCTGGCACCTCACGAT	316
ACAATGAGGTGCCTCCTGGCACCTCATTGT (5mC at 8)	478
ATAATTAGGGGCCTCCTGGCCCCTAATTAT (5mC at 27)	1380
ATAACTAGGTGCCTCCTGGCACCTAGTTAT (5mC at 11)	622
ATAATTAGTTGCCTCCTGGCAACTAATTAT	2480
TTAATTAGGTGCCTCCTGGCACCTAATTAA	1790
ATAATGAGGTGCCTCCTGGCACCTCATTAT (5mC at 28)	2440
ATAATTAGCGGCCTCCTGGCCGCTAATTAT (5mC at 27)	1670
ATAATGAGGTGCCTCCTGGCACCTCATTAT	2750
ATAATGACGTGCCTCCTGGCACGTCATTAT (5mC at 14)	880
ATAATTCGGTGCCTCCTGGCACCGAATTAT (5mC at 29)	578
ACGATGAGGTGCCTCCTGGCACCTCATCGT	346
CGAATGAGGTGCCTCCTGGCACCTCATTCG (5mC at 7)	386
ATAATGAGGGGCCTCCTGGCCCCTCATTAT	1860

Series 2
Target: RNA binding protein fox-1 homolog 2, RRM domain, GST-SBP tag (RBFOX2, Homo sapiens, UniProt O43251-10, residues 100-194)
Method: RNA Bind-n-Seq
Form: RNA
Matrix: in vitro
Tested at: 365 nM
Notes: natural RNA segment, single round, ends assumed
Baseline: no-protein control
Direction: higher = stronger binding
All sequences stand within: GGGAGUUCUACAGUCCGACGAUC … UGGAAUUCUCGGGUGCCAA
Target sequence (chain): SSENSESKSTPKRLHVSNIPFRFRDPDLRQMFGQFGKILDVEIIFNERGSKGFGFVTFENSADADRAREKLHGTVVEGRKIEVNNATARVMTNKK
Strand	RBNS enrichment (R)
UGUGUGGCUGACUUUUGUGUAAGAAUCAUAGUUUGCUUUAGAAUACAAAUCUUUAAGUCAUUUUAACUUUUUUUUCUGCCUUACGAUAUAAAAAUAUUUAUCUUAGAAUU	0.866
UACUUUAGAAACAAAUGAAAAAGGCAAUUGAAAAUCCCAGCUAUUUCACCUAGAUGGAAUAGCCACCCUGAGCAGAACUUUGUGAUGCUUCAUUCUGUGGAAUUUUGUGC	0.417
UCCUGGACCCAGGCUUUCCCAUACCACGGGCCCAGGACUGUGGCUCCUUUUCUAAACCACCUCUGGGACUCAGCUCCCCCCGCCAAAAAAAAUGGGUCUCCUUCUGGGCU	0.787
AAUGAGCAGUUCGCUCCUCCCUGAUAAGAGUUGUCCCAAAGGGUCGCUUAAGGAAUCUGCCCCACAGCUUCCCCCAUAGAAGGAUUUCAUGAGCAGAUCAGGACACUUAG	0.261
CUCAUUACUAAUAUUUGUUGUAAAAGUGAAACUUGUUUGCCGACCAAUAAACAACUGAUUGAGAUUUAGAAGAGAUUGCUUUGACGUAUGUACUGUAUUAUCAAGUCCUC	0.334
GGUACCGUAGAGUGGAAAUGAUCUUCAAUAAUAACAGUAGUGACUUUUGGAUGCUUUGUUGCUGGUAUGACUCUUGAGGUGUCCUGAUUUGUGUCCAGUUUUUGAACCUC	2.02
UAUAUGUGGCCACACUGAUGUUCACCUUUACGUCCAGGGUCUUUGUGCCUUGUCUCUACUCCCUCUCUUGGAUCUGGGGAGGAGGGGCAGAGACCUGGGACUCUGUAUUU	0.348
AUGAGAAGAUAUAUUAAAUGUAGUCAUAGGGGACUGAGGAGCAAGGGUGGCCUUGAAGAGGCCAAAGGAAUGUCCAUUUGCUGAGUUUCCCUUCCUUAUGUCUCCAGUCU	0.861
AACUGCUUGUUUUCGCUCACUUGCCUCCCCUUCAGACAUGUAAGUGCAGUCUCCAAAGCUUGACGUUGCUAAUGACACCUGCCUCGUUGCUUUGCUUAGUUGGCAAAAGC	1.19
CCAGCAUGCCGAGCACAAUGUCCACCCACUUGUGCUGUGUAGACUGUUGCAUACAGCUGAGUACAGUGAGCGGCUUCUGCACAUAUUUAACUCUCCCUAUAUAUUAACUC	5.37
CUGUGCAAUUAUGUAAAUUUUCAACUGUCUUCCUCAAAAUAAAGAAGUAUGGUAAUCUUUACCUGUAUACAGUGCAGAGCCUUCUCAGAAGCACAGAAUAUUUUUAUAUU	0.373
UAUAAACACGAUGUUAUUUUUCUUUACAAAAGCAAAAAAAUAAAAACCGUACCAACCUUUGACUUGUUCAGGCUGUGUUUUCUUUGUUUGCUGGGCUAGCCCUCUGGGGG	0.512

Series 3
Target: CCND2, cyclin fold, Cln2 fusion (human)
Method: yeast growth competition, sequencing
Matrix: yeast
Notes: weak parent motif
Baseline: not given
Direction: higher = stronger binding
Parent: RBL2 docking peptide (human); STTRRRLFVENDS; partner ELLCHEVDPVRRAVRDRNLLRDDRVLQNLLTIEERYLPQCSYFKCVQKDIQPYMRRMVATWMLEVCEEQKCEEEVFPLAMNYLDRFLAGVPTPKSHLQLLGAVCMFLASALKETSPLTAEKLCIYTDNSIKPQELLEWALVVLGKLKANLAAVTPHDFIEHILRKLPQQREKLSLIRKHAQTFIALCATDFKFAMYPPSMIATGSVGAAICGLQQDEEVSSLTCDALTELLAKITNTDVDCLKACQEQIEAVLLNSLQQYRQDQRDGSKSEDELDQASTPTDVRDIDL
Variant	normalised enrichment score
STTRRRKFVENDS [L7K]	0.0634
STTRRRLFVENDH [S13H]	-0.0103
STTRRRLFVEMDS [N11M]	0.674
STTRRRLFVENTS [D12T]	0.0336
STTRRRLFGENDS [V9G]	0.195
STTRRALFVENDS [R6A]	0.257
STTRRRLFVENDY [S13Y]	0.329
STTRRRRFVENDS [L7R]	0.763
STTRRRLFVENRS [D12R]	0.161
STTRRRLFVGNDS [E10G]	-0.153
STTRRRLFTENDS [V9T]	0.791
STTRRRLVVENDS [F8V]	-0.112
STTRRRLFVENGS [D12G]	0.0643
STTRRRPFVENDS [L7P]	0.221
STQRRRLFVENDS [T3Q]	-0.0323
STRRRRLFVENDS [T3R]	0.0731
STTRRRDFVENDS [L7D]	0.441
PTTRRRLFVENDS [S1P]	0.311
SPTRRRLFVENDS [T2P]	0.224
STTRRRLFVENDF [S13F]	0.413
STTRRRLFVQNDS [E10Q]	-0.0795
STTRRRLFVENDI [S13I]	0.29
STTRTRLFVENDS [R5T]	0.698
STTKRRLFVENDS [R4K]	-0.354
STTRRRLFVRNDS [E10R]	0.12

Series 4
Target: Ras GTPase-activating protein-binding protein 1, RRM domain (G3BP1, Homo sapiens, UniProt Q13283)
Chain of UniProt Q13283 (whole entry, looked up): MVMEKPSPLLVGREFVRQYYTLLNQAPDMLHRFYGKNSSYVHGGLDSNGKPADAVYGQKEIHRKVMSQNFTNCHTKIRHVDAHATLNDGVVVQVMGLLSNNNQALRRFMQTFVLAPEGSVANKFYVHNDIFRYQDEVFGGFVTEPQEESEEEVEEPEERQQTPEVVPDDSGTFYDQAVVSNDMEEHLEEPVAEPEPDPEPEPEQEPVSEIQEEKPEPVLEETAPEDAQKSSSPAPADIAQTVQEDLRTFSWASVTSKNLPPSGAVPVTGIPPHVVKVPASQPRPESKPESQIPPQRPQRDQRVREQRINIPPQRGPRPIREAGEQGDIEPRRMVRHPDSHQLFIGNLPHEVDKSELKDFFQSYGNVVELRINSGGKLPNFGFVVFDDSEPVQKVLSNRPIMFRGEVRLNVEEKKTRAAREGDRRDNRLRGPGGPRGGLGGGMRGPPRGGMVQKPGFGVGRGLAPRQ
Method: RNA Bind-n-Seq
Form: RNA
Matrix: in vitro
Tested at: 1 µM
Notes: whole 134-nt RNA, ends assumed
With: 150 mM KCl
Baseline: input library
Direction: higher = stronger binding
All sequences stand within: GGGAGUUCUACAGUCCGACGAUC … UGGAAUUCUCGGGUGUCAAGG
Strand	log2 enrichment
UUUGACGCGGUGUGUUACGUGGGGGAGAGAAUAAAACUCCAGCGAGAUCCGGGCCGUGAACGAAAGCAGUGACGGAGGAGCUUGUACCAC	0.0421
CAUCCUUUGGGCCCCUCAAGGCCUUCAACCUGGUCAAGGACAGUGCCACGGGGCUCUCCAAGGGCUACGCCUUCUGUGAGUACGUGGACA	-0.809
UGGGAGGUGGAUUUUGUUUAUAUUUUUAGCUCAUUUCCAGGGGUGGGAAUUUUUUUUUAAUAUGUGUCAUGAAUAAAGUUGUUUUUGAAA	1.76
GUCCUGUGCUACACAUCGUAUGUACCGAAUCGGAAAAAAAGGUUUUUGGUUUUUUUGGAAAGUAUUAUGUUACGCCGUUCGGAUCUGCAC	-0.249
GCAGGAAGUAAAAACAAAUGGAAAUGCUUCGGAUAGUGGCAGGGGUGGGGGUUGCUAAGGAAACGGUGGGAUGGGAGUGGGUAAAGAGUU	0.818
ACCAUGGAGGUGGGCAUCUUUGGGAAGUGGGGCAAGGGGGGGAUAGGGAGGGGGGUAACACUUUGGGAACAGGUGGUCCCAGGUCGUUUC	-0.553
CACAGACAACACGCACCCACACAGACACAGAGGGAAGGGGUUGCGAUGGGGACAGGGUGCACAGCAGGGCGGGGUAGGACCCCAGCCCCU	-0.182
CUCAAGUCCUGUGCUACACAUCGUAUGUACCGAAUCGGGCGGGCGGGGCGGGGAAAGUAUUAUGUUACGCCGUUCGGAUCUGCACUUCCA	1.15
UUUUAGGAAGCUGCAGUAAAGGAAGAUGAAGAAGAAGUUUCAGAUAAGGGCAGUGAUUCUGAAGAAGAAGAAACCAAUAGAGAUUCCCAA	-0.0262
ACCAUGCAGGUGGGCAUCUUUGGGAAGUGCGGCAAGGGGGGGAUAGGGAGGGGGGUAACACUUUGGGAACAGGUGGUCCCAGGUCGUUUC	-0.516
UGGGAGGUGGAUUUUGUUUAUUUUUUUAGCUCAUUUCCAGGGGUGGGAAUUUUUUUUUAAUAUGUGUCAUGAAUAAAGUUGAUUUUGAAA	2.05
CAAGUCCUGUGCUACACAUCGUAUGUACCGAAUCGGGUUUUUGGGAGGGAAAGGGAAAGUAUUAUGUUACGCCGUUCGGAUCUGCACUUC	0.689
AGUCCUGUGCUACACAUCGUAUGUACCGAAUCGGGGCCCCGGGCCCCGGGGCCCCGGGAAAGUAUUAUGUUACGCCGUUCGGAUCUGCAC	0.273
GCUGUGACCCCAACGCCGGUGCCCGUGGUCGGGAGCCAGAUGACCAGACAAGCCCGGCGCCUCUACGUGGGCAACAUCCCCUUUGGCAUC	-0.354

Series 5
Target: Interferon regulatory factor 7, full length, phosphomimetic (IRF7, Homo sapiens, UniProt Q92985, residues 1-503, S471D/S472D/S475D/S476D/S477D/S483D/S484D/S487D)
Chain of UniProt Q92985 (whole entry, unmodified, looked up): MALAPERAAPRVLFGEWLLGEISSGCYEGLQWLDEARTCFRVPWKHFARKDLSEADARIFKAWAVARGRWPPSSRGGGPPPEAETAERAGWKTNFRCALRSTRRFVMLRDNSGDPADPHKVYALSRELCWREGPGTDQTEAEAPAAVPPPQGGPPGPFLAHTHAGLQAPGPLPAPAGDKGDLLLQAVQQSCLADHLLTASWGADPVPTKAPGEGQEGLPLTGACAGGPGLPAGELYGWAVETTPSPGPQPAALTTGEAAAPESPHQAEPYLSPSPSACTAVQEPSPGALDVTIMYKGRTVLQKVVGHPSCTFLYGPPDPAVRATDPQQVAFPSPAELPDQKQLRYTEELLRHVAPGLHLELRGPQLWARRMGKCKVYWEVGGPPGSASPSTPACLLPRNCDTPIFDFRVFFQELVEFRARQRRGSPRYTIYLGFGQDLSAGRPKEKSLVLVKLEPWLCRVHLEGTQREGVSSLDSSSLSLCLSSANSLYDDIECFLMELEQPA
Method: protein-binding microarray
Form: double-stranded DNA, one strand shown
Matrix: in vitro
Tested at: 2200 nM top
Notes: 60-bp whole probe
With: salmon DNA 0.4 mg/ml
Baseline: random background probes
Direction: higher = stronger binding
All sequences stand within: GCCTAGCAC … GTCTTGATTCGCTTGACGCTGCTG
Strand	fitted relative affinity [z-score]
TTAGAACTGGGTTTCGGTTAGTGCTAG	4.14
TCAGCATTCGAATTCAGACTGTGCTAG	1.18
TTAGGACTGGGGGATCGGTTAGTGCTA	0.234
GACAGTTTCCTTATCCTGACGTGCTAG	3.32
TCAGGTTTCGGTCTCGGTTAGTGCTAG	6.93
TTAGGACGGGGGTATCGGTTAGTGCTA	0.872
GACGGTATCGGGTATCGTGACGTGCTA	0.0837
TCCCTTATAAATAGCACAGGGTGCTAG	0.304
TCACAACTTTTTTTAATACTGTGCTAG	0.0678
TTAGGTCTCGACTATCGGTTAGTGCTA	0.187
GACGGACTGTGGTTTCGGGACGTGCTA	2.02
TTAGGACTGGAACTGGGTTAGTGCTAG	-0.41
GACGGTATAGACTTTCGGGACGTGCTA	2.26
GACGGGTTCGACTTTCGGGACGTGCTA	3.36
GACGGACTGAGTCTCGGGACGTGCTAG	-0.355
GACGGTCTCCTACTACTGACGTGCTAG	0.867
TCACTTTACACACATCATACTGTGCTA	2.85
GACGGACTGGGTTTCGGTACGTGCTAG	2.02
CTTCATGTGCCTTTATATACGTGCTAG	0.901

A few entries again (series 3):
Variant	normalised enrichment score
STRRRRLFVENDS [T3R]	0.0731
STTRRRLFTENDS [V9T]	0.791
STTRRRLFVENDY [S13Y]	0.329
STTRRRLFVENDH [S13H]	-0.0103
STTRRRDFVENDS [L7D]	0.441
STTRRRPFVENDS [L7P]	0.221
STTRRRKFVENDS [L7K]	0.0634
STTRRRLFVRNDS [E10R]	0.12
STTRRRLFVENRS [D12R]	0.161
STTRRALFVENDS [R6A]	0.257
